Measurements gathered from unrelated publications.
Lines come from different studies, so protocols differ.
Organism: Staphylococcus aureus

`C#CCOc1ccc(CN[C@@]2(C)C[C@H](O[C@H]3[C@H](Oc4c5cc6cc4Oc4ccc(cc4Cl)[C@@H](O)[C@@H](NC(=O)[C@@H](CC(C)C)NC)C(=O)N[C@@H](CC(N)=O)C(=O)N[C@H]6C(=O)N[C@H]4C(=O)N[C@H](C(=O)N[C@H](C(=O)O)c6cc(O)cc(O)c6-c6cc4ccc6O)[C@H](O)c4ccc(c(Cl)c4)O5)O[C@H](CO)[C@@H](O)[C@@H]3O)O[C@@H](C)[C@H]2O)cc1OC` has an MIC of 16 µg/mL (broth microdilution; VISA NRS402, tryptic soy broth; 20 to 24 h, 37 °C, 0.002% polysorbate 80).
For `CC[C@H](C)[C@H](NC(=O)[C@H](CCCNC(=N)N)NC(=O)[C@@H](NC(=O)[C@@H]1CCCN1C(=O)[C@H](CCCNC(=N)N)NC(=O)[C@@H](NC(=O)[C@@H]1CCCN1C(=O)[C@H](CC(C)C)NC(=O)[C@H](CC(C)C)NC(=O)CNC(=O)[C@H](Cc1c[nH]cn1)NC(=O)[C@@H]1CCCN1C(=O)CNC(=O)[C@H](Cc1ccccc1)NC(=O)[C@H](CC(=O)O)NC(=O)[C@H](Cc1c[nH]c2ccccc12)NC(=O)[C@H](C)NC(=O)[C@@H](NC(=O)[C@H](C)N)[C@@H](C)O)[C@@H](C)CC)[C@@H](C)CC)C(=O)N[C@@H](CCCNC(=N)N)C(=O)N1CCC[C@H]1C(=O)N[C@@H](CC(C)C)C(=O)N[C@@H](CS)C(=O)NCC(=O)N[C@@H](CCCCN)C(=O)N[C@@H](CC(=O)O)C(=O)O`, the MIC was 1120 µg/mL (broth microdilution; ATCC 29213, Mueller-Hinton broth; 16 to 20 h, 37 °C).
With `CN[C@H](CC(C)C)C(=O)N[C@H]1C(=O)N[C@@H](CC(N)=O)C(=O)N[C@H]2C(=O)N[C@H]3C(=O)N[C@H](C(=O)N[C@H](C(=O)NCC(N)=O)c4cc(O)cc(O)c4-c4cc3ccc4O)[C@H](O)c3ccc(c(Cl)c3)Oc3cc2cc(c3O[C@@H]2O[C@H](CO)[C@@H](O)[C@H](O)[C@H]2O[C@H]2C[C@](C)(NCc3ccc(OCc4cn(CC(=O)N[C@H](C(=O)N[C@@H](CCN)C(=O)N[C@H]5CCNC(=O)[C@H]([C@@H](C)O)NC(=O)[C@H](CCN)NC(=O)[C@H](CCN)NC(=O)[C@H](CC(C)C)NC(=O)[C@@H](CC(C)C)NC(=O)[C@H](CCN)NC5=O)[C@@H](C)O)nn4)c(OC)c3)[C@H](O)[C@H](C)O2)Oc2ccc(cc2Cl)[C@H]1O` the MIC was 3 µM (NRS402 VISA).
`CC[C@H](C)[C@H](NC(=O)[C@@H](CCCNC(=N)N)NC(=O)[C@H](CCCNC(=N)N)NC(=O)[C@@H]1CCCN1C(=O)[C@@H]1CCCN1C(=O)[C@H](CCCNC(=N)N)NC(=O)[C@@H]1CCCN1C(=O)[C@H](CCCNC(=N)N)NC(=O)[C@@H]1CCCN1C(=O)[C@H](CC(C)C)NC(=O)[C@H](Cc1ccc(O)cc1)NC(=O)[C@@H]1CCCN1C(=O)[C@H](Cc1ccc(O)cc1)NC(=O)[C@H](CCCCN)NC(=O)[C@H](CC(=O)O)NC(=O)[C@@H](N)C(C)C)C(=O)N[C@@H](Cc1ccc(O)cc1)C(=O)N[C@@H](CC(N)=O)C(=O)N[C@H](CCCNC(=N)N)C(N)=O` has an MIC of > 128 µg/mL (broth microdilution; DSM 6247; 18 h, 37 °C, 25% MHB2).
For `Oc1c(Br)cc(Br)c2nc3cc(Cl)ccc3nc12`, the MIC was 0.2 µM (broth microdilution; MRSA-2; 16 h, 37 °C).
For `CCCCCCCCCCCCCC(=O)N[C@H]1C(=O)N[C@@H](CN)C(=O)N[C@@H](CO)C(=O)N[C@@H](Cc2ccc(O)cc2)C(=O)O[C@H]1C`, the MIC was 1 µg/mL (SH1000; with: N-acetylsphingosine, molar ratio 2).
For `C#CCOc1ccc(CN[C@@]2(C)C[C@H](O[C@H]3[C@H](Oc4c5cc6cc4Oc4ccc(cc4Cl)[C@@H](O)[C@@H](NC(=O)[C@@H](CC(C)C)NC)C(=O)N[C@@H](CC(N)=O)C(=O)N[C@H]6C(=O)N[C@H]4C(=O)N[C@H](C(=O)N[C@H](C(=O)NCC(N)=O)c6cc(O)cc(O)c6-c6cc4ccc6O)[C@H](O)c4ccc(c(Cl)c4)O5)O[C@H](CO)[C@@H](O)[C@@H]3O)O[C@@H](C)[C@H]2O)cc1OC`, the MIC was 2 µM (NRS402 VISA).
`CC[C@H](C)[C@H](NC(=O)[C@@H](CCCNC(=N)N)NC(=O)[C@H](CCCNC(=N)N)NC(=O)[C@@H]1CCCN1C(=O)[C@@H]1CCCN1C(=O)[C@H](CCCNC(=N)N)NC(=O)[C@@H]1CCCN1C(=O)[C@H](CCCNC(=N)N)NC(=O)[C@@H]1CCCN1C(=O)[C@H](CC(C)C)NC(=O)[C@H](Cc1c[nH]cn1)NC(=O)[C@@H]1CCCN1C(=O)[C@@H]1CCCN1C(=O)[C@H](CCCCN)NC(=O)[C@H](CC(=O)O)NC(=O)[C@@H](N)C(C)C)C(=O)N[C@@H](Cc1ccc(O)cc1)C(=O)N[C@@H](CC(N)=O)C(=O)N[C@H](CCCNC(=N)N)C(N)=O` gave an MIC of 128 µg/mL (broth microdilution; DSM 6247; 18 h, 37 °C, 25% MHB2).
`C#CCOc1ccc(CN[C@@]2(C)C[C@H](O[C@H]3[C@H](Oc4c5cc6cc4Oc4ccc(cc4Cl)[C@@H](O)[C@@H](NC(=O)[C@@H](CC(C)C)NC)C(=O)N[C@@H](CC(N)=O)C(=O)N[C@H]6C(=O)N[C@H]4C(=O)N[C@H](C(=O)N[C@H](C(=O)N[C@@H](CCCNC(=N)N)C(N)=O)c6cc(O)cc(O)c6-c6cc4ccc6O)[C@H](O)c4ccc(c(Cl)c4)O5)O[C@H](CO)[C@@H](O)[C@@H]3O)O[C@@H](C)[C@H]2O)cc1OC` gave an MIC of 4 µg/mL (broth microdilution; VISA NRS402, tryptic soy broth; 20 to 24 h, 37 °C, 0.002% polysorbate 80).
`CC(C)[C@@H]1NC(=O)[C@@H](C(C)C)NC(=O)[C@H](C(C)C)NC(=O)[C@@H](C)NC(=O)[C@H](Cc2c[nH]c3ccccc23)NC(=O)[C@@H](C(C)C)NC(=O)[C@@H]2CSC1N2` gave an MIC of 100 µg/mL (NCTC 8325, Mueller Hinton broth; 21 h, 37 °C).
For `CCCCCCC#Cc1cncc(-c2nnc(SCc3ccc(Cl)cc3)n2C)c1`, the MIC was > 64 µg/mL (broth microdilution; Mu50 MRSA VISA; 18 to 24 h, 37 °C).
With `CC[C@H](C)[C@H](NC(=O)[C@H](Cc1c[nH]c2ccccc12)NC(=O)[C@H](Cc1ccc(O)cc1)NC(=O)[C@H](CCCCN)NC(=O)[C@H](CC(C)C)NC(=O)[C@H](CO)NC(=O)[C@@H](N)Cc1ccccc1)C(=O)N[C@@H](CCCNC(=N)N)C(=O)N[C@@H](Cc1ccc(O)cc1)C(=O)N[C@@H](CCCCN)C(=O)N[C@@H](CCCNC(=N)N)C(=O)N[C@@H](CCC(N)=O)C(=O)NCC(=O)N[C@@H](C)C(=O)N[C@@H](C)C(=O)N[C@@H](CCCNC(=N)N)C(=O)N[C@@H](Cc1ccccc1)C(N)=O` the MIC was 100 µM (broth dilution; ATCC 25923, Mueller-Hinton broth; 24 h, 37 °C).
`CCn1ccn(CC)c1=[Se]` has an MIC of > 40 µM (microbial growth, broth dilution; ATCC700699 VISA; 24 h, drug-resistant strain).
The MIC of `CC(C)CCCCCCCCC/C=C/C(=O)N[C@@H](CC(N)=O)C(=O)N[C@H]1CNC(=O)[C@@H]2CCCN2C(=O)[C@H](C(C)C)NC(=O)[C@@H](CN)NC(=O)CNC(=O)[C@H](CC(=O)O)NC(=O)CNC(=O)[C@H](CC(=O)O)NC(=O)[C@H](CC(=O)O)NC(=O)[C@H]2CCCCN2C1=O` is reported as 2 µg/mL (broth microdilution; VISA LIM strain 2, Mueller-Hinton broth, Mg2+ 10 mg/L; 16 h, with: Ca2+ 10 mM).
For `CC[C@H]1OC(=O)[C@H](C)[C@@H](OC(=O)Cc2ccc(N)cc2)[C@H](C)[C@@H](O[C@@H]2O[C@H](C)C[C@H](N(C)C)[C@H]2O)[C@](C)(OC)C[C@@H](C)C(=O)[C@H](C)[C@@H](O)[C@]1(C)O`, the MIC was 16 µg/mL (BAA-977).
`Cc1ccc2nc(C)c(C(=O)C(=O)N(C)C)n2c1` has an MIC of > 128 µM (microbial growth, broth dilution).
The MIC of `CC[C@H](C)[C@H](NC(=O)[C@H](CCCCN)NC(=O)[C@H](Cc1c[nH]c2ccccc12)NC(=O)[C@H](Cc1c[nH]c2ccccc12)NC(=O)[C@H](CCCCN)NC(=O)[C@H](CCCCN)NC(=O)[C@H](CCCCN)NC(=O)[C@H](Cc1c[nH]c2ccccc12)NC(=O)[C@H](CCCCN)NC(=O)[C@H](CCCCN)NC(=O)[C@H](Cc1c[nH]c2ccccc12)NC(=O)[C@H](CCCCN)NC(=O)[C@H](CCCCN)NC(=O)[C@@H](NC(=O)[C@@H](NC(=O)[C@H](CCCCN)NC(=O)[C@@H](N)CCCNC(=N)N)[C@@H](C)CC)[C@@H](C)CC)C(=O)N[C@@H](Cc1c[nH]c2ccccc12)C(=O)N[C@@H](Cc1c[nH]c2ccccc12)C(=O)N[C@@H](CCCCN)C(N)=O` is reported as 1.25 µg/mL (broth microdilution; 25295).
With `CC[C@H](C)[C@H](NC(=O)[C@H](Cc1c[nH]c2ccccc12)NC(=O)[C@H](CCCCN)NC(=O)[C@H](CC(C)C)NC(=O)[C@@H](NC(=O)[C@@H](NC(=O)CNC(=O)[C@H](CCCCN)NC(=O)[C@H](Cc1c[nH]cn1)NC(=O)[C@H](CCCCN)NC(=O)[C@H](Cc1c[nH]c2ccccc12)NC(=O)[C@H](C)NC(=O)[C@H](CC(C)C)NC(=O)[C@H](CO)NC(=O)[C@@H](NC(=O)[C@H](Cc1ccc(O)cc1)NC(=O)[C@H](CCCCN)NC(=O)[C@H](CCC(N)=O)NC(=O)CNC(=O)[C@H](CCCCN)NC(=O)[C@@H](NC(=O)[C@H](C)NC(=O)[C@H](CC(C)C)NC(=O)[C@H](Cc1ccccc1)NC(=O)[C@H](CCC(N)=O)NC(=O)[C@@H](NC(=O)[C@H](CC(C)C)NC(=O)[C@H](CCCCN)NC(=O)[C@H](CCSC)NC(=O)[C@H](Cc1ccccc1)NC(=O)[C@H](C)NC(=O)[C@H](C)NC(=O)[C@@H](N)CCSC)[C@@H](C)CC)[C@@H](C)O)C(C)C)[C@@H](C)O)[C@@H](C)CC)C(=O)N[C@@H](CC(N)=O)C(N)=O` the MIC was 6 µg/mL (broth microdilution; ATCC 6538; 24 h, 37 °C).

Some of these lines once more:
For `CC[C@H]1OC(=O)[C@H](C)[C@@H](OC(=O)Cc2ccc(N)cc2)[C@H](C)[C@@H](O[C@@H]2O[C@H](C)C[C@H](N(C)C)[C@H]2O)[C@](C)(OC)C[C@@H](C)C(=O)[C@H](C)[C@@H](O)[C@]1(C)O`, the MIC was 16 µg/mL (BAA-977).
`C#CCOc1ccc(CN[C@@]2(C)C[C@H](O[C@H]3[C@H](Oc4c5cc6cc4Oc4ccc(cc4Cl)[C@@H](O)[C@@H](NC(=O)[C@@H](CC(C)C)NC)C(=O)N[C@@H](CC(N)=O)C(=O)N[C@H]6C(=O)N[C@H]4C(=O)N[C@H](C(=O)N[C@H](C(=O)N[C@@H](CCCNC(=N)N)C(N)=O)c6cc(O)cc(O)c6-c6cc4ccc6O)[C@H](O)c4ccc(c(Cl)c4)O5)O[C@H](CO)[C@@H](O)[C@@H]3O)O[C@@H](C)[C@H]2O)cc1OC` gave an MIC of 4 µg/mL (broth microdilution; VISA NRS402, tryptic soy broth; 20 to 24 h, 37 °C, 0.002% polysorbate 80).
With `CN[C@H](CC(C)C)C(=O)N[C@H]1C(=O)N[C@@H](CC(N)=O)C(=O)N[C@H]2C(=O)N[C@H]3C(=O)N[C@H](C(=O)N[C@H](C(=O)NCC(N)=O)c4cc(O)cc(O)c4-c4cc3ccc4O)[C@H](O)c3ccc(c(Cl)c3)Oc3cc2cc(c3O[C@@H]2O[C@H](CO)[C@@H](O)[C@H](O)[C@H]2O[C@H]2C[C@](C)(NCc3ccc(OCc4cn(CC(=O)N[C@H](C(=O)N[C@@H](CCN)C(=O)N[C@H]5CCNC(=O)[C@H]([C@@H](C)O)NC(=O)[C@H](CCN)NC(=O)[C@H](CCN)NC(=O)[C@H](CC(C)C)NC(=O)[C@@H](CC(C)C)NC(=O)[C@H](CCN)NC5=O)[C@@H](C)O)nn4)c(OC)c3)[C@H](O)[C@H](C)O2)Oc2ccc(cc2Cl)[C@H]1O` the MIC was 3 µM (NRS402 VISA).
